Measured values of several laboratories.
Compare with care: the assays were run in different laboratories. Numbers after ± are the reported error. ≈ marks a conversion by molar mass, not a printed value.
UniProt Q15761, sequence (whole entry, looked up): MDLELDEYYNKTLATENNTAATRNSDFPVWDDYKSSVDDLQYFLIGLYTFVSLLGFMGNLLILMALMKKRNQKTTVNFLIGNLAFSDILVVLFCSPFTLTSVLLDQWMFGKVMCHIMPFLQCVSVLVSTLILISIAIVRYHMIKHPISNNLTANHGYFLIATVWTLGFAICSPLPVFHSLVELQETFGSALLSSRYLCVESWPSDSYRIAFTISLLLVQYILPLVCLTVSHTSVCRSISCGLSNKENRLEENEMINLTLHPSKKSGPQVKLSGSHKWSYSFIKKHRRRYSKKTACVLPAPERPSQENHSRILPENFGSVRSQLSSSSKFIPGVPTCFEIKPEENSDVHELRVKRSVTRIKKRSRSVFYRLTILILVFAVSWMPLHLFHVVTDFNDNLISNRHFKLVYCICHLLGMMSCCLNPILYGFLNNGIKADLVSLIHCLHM
UniProt G5EFZ1, sequence (whole entry, looked up): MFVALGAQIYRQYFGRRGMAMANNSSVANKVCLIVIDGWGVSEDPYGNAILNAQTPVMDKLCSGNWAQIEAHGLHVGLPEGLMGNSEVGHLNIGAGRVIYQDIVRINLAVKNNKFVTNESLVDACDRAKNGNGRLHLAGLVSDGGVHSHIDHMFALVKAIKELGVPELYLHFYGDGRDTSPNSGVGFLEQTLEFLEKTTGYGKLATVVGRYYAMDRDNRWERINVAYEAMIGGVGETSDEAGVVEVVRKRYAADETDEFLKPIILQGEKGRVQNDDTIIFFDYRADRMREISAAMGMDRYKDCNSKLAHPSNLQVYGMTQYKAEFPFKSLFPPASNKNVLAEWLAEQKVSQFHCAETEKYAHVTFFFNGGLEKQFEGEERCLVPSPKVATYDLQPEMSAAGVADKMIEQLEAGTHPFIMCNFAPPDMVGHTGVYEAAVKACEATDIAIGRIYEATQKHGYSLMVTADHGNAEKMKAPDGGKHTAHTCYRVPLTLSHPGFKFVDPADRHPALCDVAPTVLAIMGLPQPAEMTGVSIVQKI

Compound | tested on | test | system | conditions | scale | endpoint | result
COc1ccc(-c2oc3ccc(-c4cc(OC)c(OC)c(OC)c4)cc3c2C#CC(C)(C)O)cc1 | hepatitis C virus | viral entry, HCV pseudoparticle entry | genotype 1b | 10 µM | baseline: DMSO | remaining activity | 79.1%
CCC(=O)N(C)c1ccc(Cl)c(Cl)c1 | Escherichia coli | Ames test | WP2 uvrA | 1.00 mg/plate, with rat liver S9 |  | revertants | 31 ± 1.7 revertants/plate
COC(=O)C1=CO[C@@H](C)[C@@H]2Cn3ccc4c5ccccc5nc-4c3C[C@H]12 | Plasmodium falciparum | parasite growth, [3H]-hypoxanthine incorporation | FCR3 drug-resistant | concentration not given | baseline: FCR3 over 3D7 | activity fold increase | 2 to 6 fold
CC#N.[Cl][Mn-2]([Cl])([Cl])[Cl].[Mn+2].c1ccc(CN2CCCN3CCCN(CCCN(Cc4ccccc4)CC3)CC2)cc1 | Leishmania donovani | parasite growth, resazurin |  | 72 h, amastigote |  | IC50 | 1500 nM
CN[C@](C)(C[18F])C(=O)O | A549 tumour model |  | host not given, heart | 30 min, tumour-bearing |  | tracer uptake | 2.7 %ID/g
CCCCc1ccc(-c2nc(C)c(C(C)=NNC(=N)N)s2)cc1 | Staphylococcus aureus |  | NRS19 VISA |  |  | MBC | 2.6 µg/mL (≈ 7.89 µM)
Nc1ccn(C[C@@H](CO)OCP(=O)(O)OCCCS(=O)(=O)CCCCCCCCCCCCC2CCC2)c(=O)n1 | human alphaherpesvirus 3 |  | HFF, Ellen |  | baseline: CC50 over EC50 | selectivity index | 23
C=C(C)[C@@H]1CC[C@]2(C(=O)NC(CO)Cc3ccccc3)CC[C@]3(C)[C@H](CC[C@@H]4[C@@]5(C)CCCNC(C)(C)[C@@H]5CC[C@]43C)[C@@H]12 (stereo partly drawn) | Human papillomavirus 11 | viral replication | C-33 A |  | baseline: CC50 over EC50 | selectivity index | < 3
Oc1cc(C(F)(F)F)ccc1-c1nc2c(C(F)(F)F)cc(C(F)(F)F)cc2[nH]1 | Acinetobacter baumannii | colistin potentiator | AB 1F9, colistin-resistant | 5 µM |  | colistin MIC | 0.5 µg/mL
CC(=O)[O-].CN1CCN2CCN(CC1)CCN(Cc1ccccc1)CC2.F[P-](F)(F)(F)(F)F.[Cu+2] | Leishmania donovani | parasite growth | THP-1 macrophages | intracellular amastigotes |  | IC90 | > 20000 nM
[Cl-].[Cl-].[Ru+2].c1ccc2nc3c4cccnc4c4ncccc4c3nc2c1.c1ccncc1.c1ccncc1.c1ccncc1.c1ccncc1 | Enterococcus faecalis |  | VRE ATCC 51299 | LED irradiation 470 nm |  | MIC90 | 16 µM
CC(=O)[O-].F[P-](F)(F)(F)(F)F.[Co+2].c1ccc(CN2CCCNCCN(Cc3ccccc3)CCCNCC2)cc1 | Leishmania donovani | parasite growth | THP-1 macrophages | intracellular amastigotes |  | IC90 | > 15000 nM
CC(=O)N[C@@H](CCCNC(=N)N)C(=O)N[C@@H](Cc1ccc(O)cc1)C(=O)N[C@@H](CCCNC(=N)NC(=O)NCCCCN)C(=O)N[C@@H](CC(C)C)C(=O)N[C@@H](CCCNC(=N)N)C(=O)N[C@H](Cc1ccc(O)cc1)C(N)=O | NPY5R (Homo sapiens, UniProt Q15761) | ligand displacement, radioligand |  |  |  | Ki | > 5000 nM
COc1ccc(C[C@H]2C(=O)N[C@@H](CC(N)=O)C(=O)N[C@@H](CC(=O)O)C(=O)N[C@@H](CO)C(=O)NCC(=O)N[C@@H](Cc3c[nH]c4ccccc34)C(=O)N(C)[C@@H](Cc3ccc(O)cc3)C(=O)N[C@@H](CC(N)=O)C(=O)N[C@@H]([C@@H](C)O)C(=O)N(C)[C@@H](Cc3ccccc3)C(=O)N[C@H](C(N)=O)CSCC(=O)N[C@@H](Cc3ccc(O)cc3)C(=O)N2C)cc1 | ipgm-1 (Caenorhabditis elegans, UniProt G5EFZ1) | enzyme activity |  |  |  | AC50 | 2750 nM
O.O=[N+]([O-])[O-].O=c1cc[nH]c(=S)[nH]1.[Ag+].c1ccc(P(c2ccccc2)c2ccccc2)cc1.c1ccc(P(c2ccccc2)c2ccccc2)cc1 | Shigella flexneri |  | MTCC 1457, DMSO | 0.1 mL of 50 mg/mL in 8 mm well, 18 to 24 h |  | inhibition zone diameter | 26 mm
[O-][N+]1=C(c2ccccc2)C2=NCCCN2c2ncccc21 | Bacteroides fragilis | microbial growth | ATCC25285 |  |  | MIC | 0.125 µg/mL (≈ 0.449 µM)
CC(C)[C@@H]1NC(=O)[C@H](CO)N(C)C(=O)[C@H](Cc2c[nH]c3ccccc23)NC(=O)[C@H](CCC(=O)O)NC(=O)[C@H](CC(=O)O)NC(=O)[C@H](Cc2ccc(O)cc2)N(C)C(=O)[C@H](Cc2ccc(O)cc2)NC(=O)[C@H](Cc2c[nH]c3ccccc23)NC(=O)[C@H](Cc2c[nH]c3ccccc23)NC(=O)[C@H](CC(=O)O)NC(=O)CNC(=O)[C@H](CO)NC(=O)[C@@H](Cc2ccc(O)cc2)NC(=O)CSC[C@@H](C(N)=O)NC(=O)CN(C)C(=O)[C@H](Cc2ccccc2)N(C)C(=O)[C@H](C)NC1=O | cofactor-independent phosphoglycerate mutase (Metamycoplasma orale, UniProt A0A448ZXM1, W431C) | biochemical | Mycoplasma orale |  |  | AC50 | 6.17 nM
CC(=O)[O-].F[P-](F)(F)(F)(F)F.[Co+2].c1ccc(CN2CCCN3CCN(CCCN(Cc4ccccc4)CC3)CC2)cc1 | Leishmania donovani | parasite growth, resazurin |  | 72 h, amastigote |  | IC90 | > 15000 nM

Repeated from above:
Compound | tested on | test | system | conditions | scale | endpoint | result
[Cl-].[Cl-].[Ru+2].c1ccc2nc3c4cccnc4c4ncccc4c3nc2c1.c1ccncc1.c1ccncc1.c1ccncc1.c1ccncc1 | Enterococcus faecalis |  | VRE ATCC 51299 | LED irradiation 470 nm |  | MIC90 | 16 µM
CC#N.[Cl][Mn-2]([Cl])([Cl])[Cl].[Mn+2].c1ccc(CN2CCCN3CCCN(CCCN(Cc4ccccc4)CC3)CC2)cc1 | Leishmania donovani | parasite growth, resazurin |  | 72 h, amastigote |  | IC50 | 1500 nM
